Measurements gathered from unrelated publications.
Compare with care: the assays were run in different laboratories. ± gives the spread as reported. Values after ≈ are worked out from the molar mass of the structure shown.

CCCCCCCCC(=O)NCc1ccc(O)c(OC)c1  IC50 (mouse mAb 1-F12; antibody binding, indirect competitive ELISA; added: coating antigen 1-OVA): 0.252 µg/mL (≈ 0.857 µM)
Oc1ccc(Nc2ccnc3cc(Cl)ccc23)cc1  EC90 (Dengue virus 2; viral replication, plaque; BHK-21): 31.2 ± 5.15 µM
CCCCCc1cc(O)c2c(c1)OC(C)(C)C1CCC(C)=CC21 (stereo not drawn)  intraocular pressure (rabbit, α-chymotrypsin glaucoma model; topical, 50 µL of 0.5% w/v, 1 h; reference: baseline): 89.2%
CC[C@H](C)[C@H](NC(=O)[C@H](CCCNC(=N)N)NC(=O)[C@H](CCCCN)NC(=O)[C@H](CC(C)C)NC(=O)[C@H](CC(C)C)NC(=O)CN)C(=O)N[C@@H](CCCCN)C(=O)N[C@H](C(=O)N[C@@H](CC(C)C)C(=O)N[C@@H](CC(C)C)C(=O)NCCCC[C@H](NC(=O)[C@H](CC(C)C)NC(=O)[C@H](CC(C)C)NC(=O)[C@@H](NC(=O)[C@H](CCCCN)NC(=O)[C@@H](NC(=O)[C@H](CCCNC(=N)N)NC(=O)[C@H](CCCCN)NC(=O)[C@H](CC(C)C)NC(=O)[C@H](CC(C)C)NC(=O)CN)[C@@H](C)CC)[C@@H](C)O)C(=O)NCCCC[C@H](NC(=O)[C@H](CCCCNC(=O)[C@H](CC(C)C)NC(=O)[C@H](CC(C)C)NC(=O)[C@@H](NC(=O)[C@H](CCCCN)NC(=O)[C@@H](NC(=O)[C@H](CCCNC(=N)N)NC(=O)[C@H](CCCCN)NC(=O)[C@H](CC(C)C)NC(=O)[C@H](CC(C)C)NC(=O)CN)[C@@H](C)CC)[C@@H](C)O)NC(=O)[C@H](CC(C)C)NC(=O)[C@H](CC(C)C)NC(=O)[C@@H](NC(=O)[C@H](CCCCN)NC(=O)[C@@H](NC(=O)[C@H](CCCNC(=N)N)NC(=O)[C@H](CCCCN)NC(=O)[C@H](CC(C)C)NC(=O)[C@H](CC(C)C)NC(=O)CN)[C@@H](C)CC)[C@@H](C)O)C(N)=O)[C@@H](C)O  FIC index (Klebsiella pneumoniae; checkerboard; ATCC 700603; added: gentamicin): 0.375
Nc1ccc(/C=C/C(=O)N2CCc3c(oc4c(-c5ccc(F)cc5)cc(-c5ccc(C(=O)N6CCC(F)(F)CC6)cn5)cc34)C2)cn1  dendritic cells and macrophages (mice, Pan02 allograft, tumour; 100 mg/kg): increased
CN[C@](C)(C[18F])C(=O)O  tracer uptake (A549 tumour model; host not given, muscle; 15 min, tumour-bearing): 2.1 %ID/g
CCC(C)C1NC(=O)C(Cc2ccccc2)NC(=O)C(CCCCCC(=O)C2CO2)NC(=O)C2CCCCN2C1=O (stereo not drawn)  time to full killing (Plasmodium falciparum; flow cytometry; Dd2; concentration not given, 24 h exposure; reference: DMSO control): 5 days
COC[C@@H](NC(C)=O)C(=O)NCc1ccc(N=[N+]=[N-])cc1  channels in slow-inactivated state (voltage-gated sodium channel; CAD; 40 µM, non-irradiated at -50 mV): 50%
CC(C)C1=C(OC(=O)Cc2ccccc2)C(=O)C2=C(C=C[C@H]3C(C)(C)CCC[C@]23C)C1=O  EC50 (total antioxidant capacity, phosphomolybdenum method): 412 µM
C[C@@](O)(C(F)F)[C@H](NC(=O)c1ccc(C#CC#CC2CC2)cc1)C(=O)NO  MIC90 (Achromobacter xylosoxidans; agar dilution; clinical isolates): 0.5 µg/mL (≈ 1.33 µM)
CCN(Cc1ccccc1)C(=O)CCc1nc(CN2CCN(C(=O)Cc3ccc(OC)c(OC)c3)CC2)no1  onset day (mechanical withdrawal threshold, von Frey; mouse CCI model; 5 mg/kg, dosing from day 11): 13 days
CN1CC23C4C5CC5C5C4C4C2C2CC2C4C53C1 (stereo not drawn)  EC50 (Influenza A virus; viral replication, inhibitor; H3N2): > 100 µM
CC[C@H](C)[C@H](NC(=O)[C@@H](NC(=O)[C@H](CC(=O)O)NC(C)=O)[C@@H](C)O)C(=O)N[C@@H](CCCNC(=N)N)C(=O)N[C@@H](CC(C)C)C(=O)N[C@@H](CC(C)C)C(=O)N[C@@H](Cc1ccccc1)C(=O)N[C@@H](CCC(N)=O)C(=O)N[C@@H](CC(C)C)C(=O)N[C@@H](CCSC)C(=O)N[C@@H](CCCNC(=N)N)C(=O)N1CCC[C@H]1C(=O)N1CCC[C@H]1C(=O)N[C@@H](CC(N)=O)C(=O)N[C@@H](CCSC)C(=O)N[C@H](C(=O)N1CCC[C@H]1C(=O)N[C@@H](C)C(=O)N[C@H](C(=O)N[C@@H](CC(N)=O)C(=O)N[C@@H](C)C(N)=O)C(C)C)[C@@H](C)O  α4β7+ CCR9− cells (item: HA-41 tetramer; antigen-experienced tetramer+ CD4 T cells, healthy adults, HLA-DRB1*0101; dose not given): 50%
CC/C=C\C/C=C\C/C=C\C/C=C\C/C=C\C/C=C\CCC(=O)Nc1ccn(C2OC(CO)C(O)C2(F)F)c(=O)n1 (stereo not drawn)  CC50 (BT-549): 44.2 µM
CNCC12C3CCC4C3C3C(CCC31)C42  EC50 (Influenza A virus; viral replication; MDCK, H3N2 A/HK/7/87): > 100 µM
Cc1ccccc1N1C(=O)/C(=C/c2ccc(OCc3cccc(C(=O)O)c3)cc2)C(=O)NC1=S  concentration for maximal effect (LYP (PTPN22), human; immunoblot; Jurkat TAg; 0 or 3 min, added: TCR stimulation): ~4 µM
CN1CC23C4C=CC5C4C4C2C=CC4C53C1  EC50 (Influenza A virus; viral replication; MDCK, A/Ned/378/05 (H1N1)): 7 µM
CCCCCCCCCCCCCC(=O)NCC(=O)N[C@@H](CCCNC(=N)N)C(=O)N[C@@H](Cc1c[nH]c2ccccc12)C(=O)N[C@@H](CCCCN)C(=O)N[C@H](C(=O)N[C@@H](Cc1ccccc1)C(=O)N[C@@H](CCCCN)C(=O)N[C@@H](CCCCN)C(=O)N[C@H](C(=O)N[C@@H](CCC(=O)O)C(=O)N[C@@H](CCCCN)C(=O)N[C@H](C(=O)NCC(=O)N[C@@H](CCC(N)=O)C(=O)N[C@@H](CC(N)=O)C(=O)N[C@H](C(=O)N[C@@H](CCCNC(=N)N)C(=O)N[C@@H](CC(=O)O)C(=O)NCC(=O)N[C@H](C(=O)N[C@H](C(=O)N[C@@H](CCCCN)C(=O)N[C@@H](C)C(=O)NCC(=O)N1CCC[C@H]1C(=O)N[C@@H](C)C(=O)N[C@H](C(=O)N[C@@H](C)C(=O)N[C@H](C(=O)N[C@H](C(=O)NCC(=O)N[C@@H](CCC(N)=O)C(=O)N[C@@H](C)C(=O)N[C@@H](C)C(=O)N[C@H](C(=O)N[C@H](C(N)=O)[C@@H](C)CC)[C@@H](C)O)C(C)C)C(C)C)C(C)C)C(C)C)[C@@H](C)CC)[C@@H](C)CC)C(C)C)[C@@H](C)CC)[C@@H](C)CC  Bcl-2 protein level (K562/MDR; western blot; concentration not given, 16 h): decreased
CCC1(CC)C2CC3CC(C2)CC1(NC)C3  EC50 (Influenza A virus; viral replication; MDCK, A/Ned/378/05 (H1N1)): 8.7 ± 0.3 µM
CCCCCc1cc(OC(=O)C(NC(=O)CCC(=O)O)C(C)C)c2c(c1)OC(C)(C)C1CCC(C)=CC21 (stereo not drawn)  intraocular pressure (rabbit, α-chymotrypsin-induced glaucoma; concentration not given, 1 h; reference: baseline): 64%
CCC1(CC)C2CC3CC(C2)CC1(N)C3  EC50 (Influenza A virus; viral replication; MDCK, A/Ned/378/05 (H1N1)): 4.7 ± 1.3 µM
C[C@]12CC[C@H](O)CC1=CC[C@@H]1[C@@H]2CC[C@]2(C)C(=O)CC[C@@H]12  6-phosphogluconate level (glucose-6-phosphate dehydrogenase (human); inhibitor; HepG2; 100 µM, 2 h): no effect
NCC12C3CCC4C3C3C(CCC31)C42  EC50 (Influenza A virus; viral replication, inhibitor; H3N2): > 100 µM
Cc1ccc(/C=C/C(=O)O)cc1-c1cc2c(cc1C)C(C)(C)CCC2(C)C  log2 fold change (RNA sequencing, item: Emr4 mRNA; rat, brain; dose not given, 24 h, single dose; reference: vehicle): 0.25

Repeated from above:
CC/C=C\C/C=C\C/C=C\C/C=C\C/C=C\C/C=C\CCC(=O)Nc1ccn(C2OC(CO)C(O)C2(F)F)c(=O)n1 (stereo not drawn)  CC50 (BT-549): 44.2 µM
Nc1ccc(/C=C/C(=O)N2CCc3c(oc4c(-c5ccc(F)cc5)cc(-c5ccc(C(=O)N6CCC(F)(F)CC6)cn5)cc34)C2)cn1  dendritic cells and macrophages (mice, Pan02 allograft, tumour; 100 mg/kg): increased
CCCCCCCCCCCCCC(=O)NCC(=O)N[C@@H](CCCNC(=N)N)C(=O)N[C@@H](Cc1c[nH]c2ccccc12)C(=O)N[C@@H](CCCCN)C(=O)N[C@H](C(=O)N[C@@H](Cc1ccccc1)C(=O)N[C@@H](CCCCN)C(=O)N[C@@H](CCCCN)C(=O)N[C@H](C(=O)N[C@@H](CCC(=O)O)C(=O)N[C@@H](CCCCN)C(=O)N[C@H](C(=O)NCC(=O)N[C@@H](CCC(N)=O)C(=O)N[C@@H](CC(N)=O)C(=O)N[C@H](C(=O)N[C@@H](CCCNC(=N)N)C(=O)N[C@@H](CC(=O)O)C(=O)NCC(=O)N[C@H](C(=O)N[C@H](C(=O)N[C@@H](CCCCN)C(=O)N[C@@H](C)C(=O)NCC(=O)N1CCC[C@H]1C(=O)N[C@@H](C)C(=O)N[C@H](C(=O)N[C@@H](C)C(=O)N[C@H](C(=O)N[C@H](C(=O)NCC(=O)N[C@@H](CCC(N)=O)C(=O)N[C@@H](C)C(=O)N[C@@H](C)C(=O)N[C@H](C(=O)N[C@H](C(N)=O)[C@@H](C)CC)[C@@H](C)O)C(C)C)C(C)C)C(C)C)C(C)C)[C@@H](C)CC)[C@@H](C)CC)C(C)C)[C@@H](C)CC)[C@@H](C)CC  Bcl-2 protein level (K562/MDR; western blot; concentration not given, 16 h): decreased
